# Assay results from different studies.
# A part holds a random share of what one study measured.

# Study 1
# Target: Sal-like protein 4, full length isoform A (SALL4, Homo sapiens, UniProt Q9UJQ4, residues 1-1053)
# Chain of UniProt Q9UJQ4 (whole entry, looked up): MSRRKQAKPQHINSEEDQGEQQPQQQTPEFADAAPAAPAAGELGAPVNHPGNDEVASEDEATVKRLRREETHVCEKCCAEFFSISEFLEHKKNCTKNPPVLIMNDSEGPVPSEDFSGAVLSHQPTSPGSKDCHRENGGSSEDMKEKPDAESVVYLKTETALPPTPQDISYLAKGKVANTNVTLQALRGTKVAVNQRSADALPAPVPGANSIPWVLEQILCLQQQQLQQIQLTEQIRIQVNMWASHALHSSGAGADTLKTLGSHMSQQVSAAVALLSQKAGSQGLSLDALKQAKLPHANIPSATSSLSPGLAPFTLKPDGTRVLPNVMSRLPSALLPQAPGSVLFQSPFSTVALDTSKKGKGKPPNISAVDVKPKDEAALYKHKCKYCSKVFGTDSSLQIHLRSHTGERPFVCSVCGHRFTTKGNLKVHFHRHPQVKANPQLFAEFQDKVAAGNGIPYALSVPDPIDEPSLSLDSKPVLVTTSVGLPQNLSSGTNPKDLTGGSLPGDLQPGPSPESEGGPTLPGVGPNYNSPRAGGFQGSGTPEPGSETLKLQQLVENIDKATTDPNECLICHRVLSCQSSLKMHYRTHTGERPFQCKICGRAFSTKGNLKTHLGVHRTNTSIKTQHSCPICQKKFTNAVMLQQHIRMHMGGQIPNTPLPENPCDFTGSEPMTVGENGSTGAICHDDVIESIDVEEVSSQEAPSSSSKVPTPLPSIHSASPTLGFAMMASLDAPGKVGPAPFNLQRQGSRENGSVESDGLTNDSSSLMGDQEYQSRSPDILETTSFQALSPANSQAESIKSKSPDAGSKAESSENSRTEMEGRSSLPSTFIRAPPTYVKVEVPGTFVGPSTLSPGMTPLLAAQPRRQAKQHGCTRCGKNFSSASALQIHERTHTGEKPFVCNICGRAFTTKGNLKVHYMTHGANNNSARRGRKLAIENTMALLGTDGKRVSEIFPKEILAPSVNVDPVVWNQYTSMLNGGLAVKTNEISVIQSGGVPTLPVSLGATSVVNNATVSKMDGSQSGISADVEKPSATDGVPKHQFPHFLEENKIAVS
# Technique: universal PBM
# Form: double-stranded DNA, one strand shown
# Sample: in vitro
# Concentration: 600 nM
# Notes: 8-mer, flanks averaged, mean of replicates
# Reading: higher = stronger binding
Sequence,E-score
GCCTGGGA,-0.345
ATCTAAAG,0.139
AGCCAACT,-0.136
GCGCCAAC,-0.151
GGAATACA,0.112
GACGTCAC,-0.245
CAAATCAA,0.246
GCGGCCAA,-0.286
CGACTACG,-0.0383
TGTCGCAA,0.0553
CCGCGCCC,-0.376
GACTTCTC,-0.0623
CTTTTTAA,0.248
AACACTAT,0.321
CGTCGGGA,-0.17
CAGATTTA,0.153
CCCATAAC,0.161
AGTTACCA,0.0574
GCACAGGA,-0.269
ATTCGTAA,0.333
AACGTTAT,0.282
ATTGACGC,0.0991

# Study 2
# Target: Max dimerization protein 1, bHLH-zipper, MAX partner unstated (MXD1, Homo sapiens, UniProt Q05195, residues 56-136)
# Technique: protein-binding microarray
# Form: double-stranded DNA, one strand shown
# Sample: in vitro
# Concentration: not given
# Notes: k-mer, scored over probes, only values ≥0.25
# Reading: higher = stronger binding
# Construct (chain): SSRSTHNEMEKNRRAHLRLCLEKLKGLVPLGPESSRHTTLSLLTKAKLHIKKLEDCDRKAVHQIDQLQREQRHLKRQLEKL
Sequence,E-score
ACCCACGT,0.427
CCCCGCAC,0.354
CATGGTCG,0.32
AACGTGGT,0.435
CACGTGCG,0.494
CACACGAG,0.416
ACATGTTC,0.306
ATGCCCCG,0.286
CGTGGCCA,0.295
CACGAGCG,0.28
CATGTTGC,0.335
AACCACGC,0.384
ATGCGGCA,0.314
ATGCATGC,0.385
ACCATGCA,0.396
CAACACGC,0.367
GTGGGGAA,0.323
TCGTGTCA,0.271
TGTTAACA,0.273
CCCCCTCG,0.255
ATCCCATG,0.286
CGTGCCTC,0.28

# Study 3
# Target: Ras GTPase-activating protein-binding protein 1, C-terminal RGG region (G3BP1, Homo sapiens, UniProt Q13283)
# Chain of UniProt Q13283 (whole entry, looked up): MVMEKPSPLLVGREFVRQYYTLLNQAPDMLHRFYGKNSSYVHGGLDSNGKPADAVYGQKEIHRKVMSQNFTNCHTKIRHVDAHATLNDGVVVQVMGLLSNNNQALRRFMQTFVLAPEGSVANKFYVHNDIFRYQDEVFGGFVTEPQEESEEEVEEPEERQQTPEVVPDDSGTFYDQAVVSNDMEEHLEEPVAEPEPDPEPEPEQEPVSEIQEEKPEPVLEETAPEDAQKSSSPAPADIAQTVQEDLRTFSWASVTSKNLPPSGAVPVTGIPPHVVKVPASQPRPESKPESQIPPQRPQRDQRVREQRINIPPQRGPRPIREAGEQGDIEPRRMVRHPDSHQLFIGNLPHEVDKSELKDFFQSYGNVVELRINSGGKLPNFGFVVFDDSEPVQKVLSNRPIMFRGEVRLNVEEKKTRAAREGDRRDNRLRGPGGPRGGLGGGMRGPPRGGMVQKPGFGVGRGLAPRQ
# Technique: RNA Bind-n-Seq
# Form: RNA
# Sample: in vitro
# Concentration: 1 µM
# Notes: whole 134-nt RNA, ends assumed
# Together with: 150 mM KCl
# Baseline: input library
# Reading: higher = stronger binding
Sequence,log2 enrichment
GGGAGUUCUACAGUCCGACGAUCUCCUGUGCUACACAUCGUAUGUACCGAAUCGGGAAAAAAGGGGAAAAAAGGAAAAAAGGGAAAGUAUUAUGUUACGCCGUUCGGAUCUGCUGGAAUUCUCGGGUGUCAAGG,-1.23
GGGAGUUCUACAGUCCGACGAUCCAAGUCCUGUGCUACACAUCGUAUGUACCGAAUCGGGGCCCGGGGCCCGGCCCGGGAAAGUAUUAUGUUACGCCGUUCGGAUCUGCACUUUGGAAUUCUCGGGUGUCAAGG,-1.76
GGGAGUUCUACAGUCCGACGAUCGCAGGAAGUAAAAACAAAUGGUAAUGCUUCGGAUAGUGGCAGGGGUGGGGGUUGCUAAGGAAAGGGUGGGAUGGGAGUGGGUAAAGAGUUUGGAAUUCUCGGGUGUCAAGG,2.67
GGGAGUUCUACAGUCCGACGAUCAGUCCUGUGCUACACAUCGUAUGUACCGAAUCGGGGAAAAAGGGGUUUGGGGAGGGGAAAGUAUUAUGUUACGCCGUUCGGAUCUGCACUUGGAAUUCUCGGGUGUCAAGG,3
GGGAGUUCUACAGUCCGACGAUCAAGUCCUGUGCUACACAUCGUAUGUACCGAAUCGGGGUUUUGGGUUUUGGUUUUGGAAAGUAUUAUGUUACGCCGUUCGGAUCUGCACUUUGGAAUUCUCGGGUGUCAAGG,-1.52
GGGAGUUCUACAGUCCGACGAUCUGGGAGGUGGAUUUUGUUUAUUGUUUUAGCUCAUUUCCAGGGGUGGGAAUUUUUUUUUAAUAUGUGUCAUGAAUAAAGUUGUUUUUGAAAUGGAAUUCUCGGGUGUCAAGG,3.1
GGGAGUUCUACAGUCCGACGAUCCUCAAGUCCUGUGCUACACAUCGUAUGUACCGAAUCGGAAGGGGAAGGGAAGGGAAAGUAUUAUGUUACGCCGUUCGGAUCUGCACUUCCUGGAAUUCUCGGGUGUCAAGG,1.45
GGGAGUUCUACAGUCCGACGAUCCACAGACAACACGCACCCACACAGACACAGAGGGAAGGGGUUGGGAUGGGGACAGGGUGCACAGCAGGGCGCGGUAGGACCCCAGCCCCUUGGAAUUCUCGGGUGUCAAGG,-0.835
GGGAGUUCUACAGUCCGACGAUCGCAGGAAGUAAAAACAAAUGGAAAUGCUUCGGAUAGUGGCAGGGGUGGGGGUUGCUAAGGAAAGGGUGGGAUGGGAAAGGGUAAAGAGUUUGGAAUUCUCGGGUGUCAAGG,2.13
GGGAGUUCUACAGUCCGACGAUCACCUUCACGGCAUGGUGCAACUCCCACCUGCGGAAGGCAGGCACACAGAUCGAGAACAUUGAUGAGGACUUCCGAGACGGGCUCAAGCUCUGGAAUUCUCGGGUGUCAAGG,-0.178

# Study 4
# Target: Histone acetyltransferase KAT6A, winged helix 2, GST fusion (KAT6A, Homo sapiens, UniProt Q92794, residues 85-181)
# Technique: protein binding microarray
# Form: double-stranded DNA, one strand shown
# Sample: in vitro
# Concentration: not given
# Notes: 8-mer, flanks averaged, mean of 2 arrays, mostly near background
# Baseline: not given
# Reading: higher = stronger binding
# Residues (chain): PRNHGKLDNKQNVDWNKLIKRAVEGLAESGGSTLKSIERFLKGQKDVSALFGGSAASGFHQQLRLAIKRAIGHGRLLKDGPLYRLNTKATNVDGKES
Sequence,E-score
TAGGCAGA,0.19
GGTGGATA,0.0956
AACCTGTC,-0.179
CGTACCTA,-0.343
CGACACCG,-0.0245
AAGGGACT,-0.0937
GACATGTA,-0.142
CACTTCCA,-0.0806
ACATAACA,-0.0316
ACAATTGC,-0.248
ATAAACGC,-0.152
ATTCTTTG,-0.0483
GCAAGTCA,-0.0728
CAATCAAG,0.105
ATAACATG,-0.126
AAACGCGA,-0.149

# Study 5
# Target: RNA binding protein fox-1 homolog 2, RRM domain, GST-SBP tag (RBFOX2, Homo sapiens, UniProt O43251-10, residues 100-194)
# Technique: RNA Bind-n-Seq
# Form: RNA
# Sample: in vitro
# Concentration: 365 nM
# Notes: natural RNA segment, single round, ends assumed
# Baseline: no-protein control
# Reading: higher = stronger binding
# Target sequence (chain): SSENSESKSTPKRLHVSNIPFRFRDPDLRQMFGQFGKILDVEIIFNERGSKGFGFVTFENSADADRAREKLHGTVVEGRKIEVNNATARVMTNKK
Sequence,RBNS enrichment (R)
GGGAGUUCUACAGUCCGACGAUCUACUGAUUAUUAAGCAGGACAGACUGAGCUUUCUGUUGCAAAUACCUUGGAGGAGAAAGUAAUUUCUAAAUAUACAGAGAGGUAACUUGACUAUAUAUGUUGCAUCCUGUUGGAAUUCUCGGGUGCCAA,0.309
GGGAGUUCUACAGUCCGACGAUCGCAGAGAUGCGUGCAUCCAGCAGCCCCUUCAAGACAUAAGAGGGCGGGGCGAGGUACUGGCUGCAGAGUCGCCUUAGUCCAGAACCUGACAGGCCUCUGGAGCCAGGCGAUGGAAUUCUCGGGUGCCAA,0.493
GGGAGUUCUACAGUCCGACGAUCAUAUUUGGGCAGAGCCUAAACGUGCAUGCUUGUCACUCAAACACCAGAAGUUUGAAUCAGAGGUCUGAGUGACCUCUUUUGUGGCUGUUCUUGAUGGUUUCCAGGCCUCGUGGAAUUCUCGGGUGCCAA,2.14
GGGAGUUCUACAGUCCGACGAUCCCAGGUCCCAGUCCCGGGUUGCAGGUGUUGACUGCCACCAAGGUUUGAUACGGGAUCCAAAUUCAGGCCCCCAUCUCGUCCAUCGAGCACUUUGUGAACUUGAACCCACGUGGAAUUCUCGGGUGCCAA,0.327
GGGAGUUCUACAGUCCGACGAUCUUAAUUGUUGAUACUUAAGUUGUCAGUAGACAUGCUUUAUUUAUGAUAUAUUUCAGCUUAAAGUUAUGUUAUUAUAUGUGGAUGUAAAUAUAGAUUUGGUGUUUUACAGUUGGAAUUCUCGGGUGCCAA,2.27
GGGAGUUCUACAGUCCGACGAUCAGGAACUUUCCUAAGAAACCGCUGAUAACCAGGACAAAACACAACCAAGGGUACACGCAGGCAUGCACGGGUUUCCUGCCCAGCGACGGCUUAAGCCAGCCCCCGACUGGUGGAAUUCUCGGGUGCCAA,0.808
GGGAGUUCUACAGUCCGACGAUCGCAAACCCAAAAUAUUUUAUUAAGAAACUGUUUCAAAGAUAAAUUUGCACUGCUCCUUUUUCUUGCCCCACCCCUCCUGAUGGGACAAAAGGGUGAAGAGCUCAAAGAACUGGAAUUCUCGGGUGCCAA,0.525
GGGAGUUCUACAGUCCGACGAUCCUUGCAGUACUGCCUGCCGUUGGUAAGCAGUGGCAUCCGAAGGCAGGAACCCUGAUGAGCCCUCACGUGCCUGUCCUUGACCAAGGUGACUUUUAUGCUGUGGCAACUGUUGGAAUUCUCGGGUGCCAA,0.41
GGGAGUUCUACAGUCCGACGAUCCAUUUUCAUGGAAUUAAUUUACACGUAAUGAGGGAAGUCCUAGGAUGGAUAGAAAAAAAGCACUUACAUUGGGGCACACAGGAAAUCCCAGUGUCUAGCAAUGGUUUGGUUGGAAUUCUCGGGUGCCAA,0.83
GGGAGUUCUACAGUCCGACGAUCUAGAAAAACUUUUGAAUAUUUUAGUUCAUUGUUCAGAUAUGUUAACUCAAGAUUAGUUUAAUUAAACUAACGAAUAGUUUUGGACACUUUAAAAGAGCUCUAAAUUUGCUUGGAAUUCUCGGGUGCCAA,0.382
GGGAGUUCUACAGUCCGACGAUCAGGAUGACUGUGUGAGCAAAGAGCGCAGCUCCUCCAGGUGACCACAUGUGGCCGCUGUCUGUGCCAGGAUAUGCUCGCAGCCAGGCUUGGGGGGCUGACACCCAGAGAACUGGAAUUCUCGGGUGCCAA,0.409
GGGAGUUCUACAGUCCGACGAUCAAGGGGUUGGUUGAGGUGGAAGCCCUCCUUCCACGGAUCCAUGUAGCAGGACUGAAUUGUCCCCAGUUUGCAGAAAAGCACCUGCCGACCUCGUCCUCCCCCUGCCAGUGUGGAAUUCUCGGGUGCCAA,0.589

# Some of these lines once more (study 1):
Sequence,E-score
CAGATTTA,0.153
GGAATACA,0.112
ATTGACGC,0.0991
AGTTACCA,0.0574
AGCCAACT,-0.136
AACGTTAT,0.282
GCCTGGGA,-0.345
CTTTTTAA,0.248
GACGTCAC,-0.245
GCGGCCAA,-0.286
TGTCGCAA,0.0553
CGTCGGGA,-0.17
